Measurements of several laboratories.
Each numbered part is a random draw from the data of one study; scales do not carry over between parts.

Study 1
Target: Sal-like protein 4, full length isoform A (SALL4, Homo sapiens, UniProt Q9UJQ4, residues 1-1053)
Chain of UniProt Q9UJQ4 (whole entry, looked up): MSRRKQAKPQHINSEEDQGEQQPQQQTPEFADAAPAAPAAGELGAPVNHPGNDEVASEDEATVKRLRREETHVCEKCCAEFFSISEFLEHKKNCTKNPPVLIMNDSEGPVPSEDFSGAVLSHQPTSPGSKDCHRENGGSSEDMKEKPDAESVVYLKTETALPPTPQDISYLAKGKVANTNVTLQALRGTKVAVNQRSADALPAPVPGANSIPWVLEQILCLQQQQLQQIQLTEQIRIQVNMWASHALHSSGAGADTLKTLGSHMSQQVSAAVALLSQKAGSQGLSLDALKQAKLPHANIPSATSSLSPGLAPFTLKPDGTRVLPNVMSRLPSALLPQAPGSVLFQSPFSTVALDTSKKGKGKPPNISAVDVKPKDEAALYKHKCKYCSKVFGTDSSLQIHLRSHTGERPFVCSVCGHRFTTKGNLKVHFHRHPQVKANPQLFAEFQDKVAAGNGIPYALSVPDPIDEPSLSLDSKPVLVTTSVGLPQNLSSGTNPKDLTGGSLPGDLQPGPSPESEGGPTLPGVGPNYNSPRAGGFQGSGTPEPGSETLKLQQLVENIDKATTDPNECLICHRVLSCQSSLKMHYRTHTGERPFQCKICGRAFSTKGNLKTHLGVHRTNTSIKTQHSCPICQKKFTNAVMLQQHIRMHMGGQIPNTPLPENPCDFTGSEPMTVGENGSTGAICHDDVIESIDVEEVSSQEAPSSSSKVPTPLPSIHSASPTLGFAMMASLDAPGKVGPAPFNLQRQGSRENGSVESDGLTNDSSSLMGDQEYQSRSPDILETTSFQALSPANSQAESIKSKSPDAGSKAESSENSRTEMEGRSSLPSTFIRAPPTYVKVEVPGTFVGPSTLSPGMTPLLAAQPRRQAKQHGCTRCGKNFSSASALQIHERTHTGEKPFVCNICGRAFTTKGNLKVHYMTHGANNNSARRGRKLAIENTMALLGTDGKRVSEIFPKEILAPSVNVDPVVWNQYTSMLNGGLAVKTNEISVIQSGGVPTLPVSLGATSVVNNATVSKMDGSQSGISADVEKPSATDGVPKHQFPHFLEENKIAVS
Method: universal PBM
Molecule type: double-stranded DNA, one strand shown
Sample: in vitro
Concentration: 600 nM
Setting: 8-mer, flanks averaged, mean of replicates
Direction: higher = stronger binding
Sequence	E-score
CAGGTCCG	-0.337
GTGTTTTA	0.225
GGCAGATA	-0.0859
ATATGTCA	0.294
AGACGGCC	-0.367
CCCCCTGA	-0.372
GATAGTCA	0.104
ACCGAGCC	-0.227
AGTTGGAG	-0.0469
CGAAAGCA	-0.0219
TACCCGGA	-0.145
CGAGCGCC	-0.423
AGATGAGA	-0.00417
CAGAACAG	-0.123
CTACTTCA	0.0306
ACCATATC	0.0985
CGCTGAGC	-0.177
CTAATAGC	0.105
TGCGCCCA	-0.204

Study 2
Target: Histone acetyltransferase KAT6A, both winged helices, GST fusion (KAT6A, Homo sapiens, UniProt Q92794, residues 1-181)
Method: protein binding microarray
Molecule type: double-stranded DNA, one strand shown
Sample: in vitro
Concentration: not given
Setting: 8-mer, flanks averaged, mean of 2 arrays, mostly near background
Relative to: not given
Direction: higher = stronger binding
Residues (chain): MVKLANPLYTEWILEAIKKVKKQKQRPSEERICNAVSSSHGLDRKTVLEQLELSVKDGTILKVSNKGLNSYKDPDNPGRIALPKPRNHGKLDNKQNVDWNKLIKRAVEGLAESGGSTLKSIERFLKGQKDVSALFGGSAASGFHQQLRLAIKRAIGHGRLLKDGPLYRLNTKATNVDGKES
Sequence	E-score
ACTCCAGG	-0.059
CACAAGCC	-0.0321
ATGCTACC	-0.0497
CTTGGTGA	-0.107
CCCAGTGA	-0.246
TAATAGGA	-0.047
ATACGCAC	0.114
GCAGGAAA	-0.186
AGGCAAAG	-0.233
TGGTATAA	-0.101
AACCCATC	-0.163
CCGCTCCG	0.301
CTAGGTCC	0.0106
CCGAGGGA	-0.0241
AGATCCAC	-0.181
GATAAAAA	-0.0891
CTCAGCGA	0.00565
AGTATACC	-0.0192
AGACACGG	0.227
GAGATACC	-0.065

Study 3
Target: Phosphate system positive regulatory protein PHO4, full length, GST-tagged (PHO4, Saccharomyces cerevisiae, UniProt P07270, residues 1-312)
Method: competition protein-binding microarray
Molecule type: double-stranded DNA, one strand shown
Sample: in vitro
Concentration: 2 µM
Setting: whole 60-bp probe, lowest competitor level
Added: Cbf1 competitor, 0.05 µM
Direction: higher = stronger binding
Shared flanks, not repeated: … GTCTTGATTCGCTTGACGCTGCTG
Residues (chain): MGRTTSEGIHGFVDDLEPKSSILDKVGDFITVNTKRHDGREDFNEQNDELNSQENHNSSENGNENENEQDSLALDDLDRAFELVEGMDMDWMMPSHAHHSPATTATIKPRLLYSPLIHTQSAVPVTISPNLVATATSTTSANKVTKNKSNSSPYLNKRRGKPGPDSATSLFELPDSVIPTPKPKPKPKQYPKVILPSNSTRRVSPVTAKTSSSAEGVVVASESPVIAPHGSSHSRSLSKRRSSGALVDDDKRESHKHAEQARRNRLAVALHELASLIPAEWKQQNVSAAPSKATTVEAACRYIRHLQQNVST
Sequence	fluorescence intensity [a.u.]
AAATTACTAAGTTGGCGAGTGGGTGACGCCGTATGA	4040
TGCTCGCAATGACAGCACGTGACGGAAAGTGAGAAT	18800
AAATTACTAAGTTGACAGGTGGGTGACGCCGTATGA	5990
AGAAATGTTCTCCTCCACGTGGATTCGTACCGTTGT	17200
ACTCTACGGATGAGTCAGGTGATGGGTCTTATCAAG	5440
TGCGCAACAACTTGTCACGGTACTTTATGTCTAGAA	4300
GAAAATGGCCCAAGTAGCGTGACAAGTCTCTGGTAA	4370
TTGAACTTGTACTTGCACATGTATCTTATTGTTTCG	9070
CGGGGTTAAGTTTGGCTGGTGGGTGGCTTGCAGCAG	4530
CATACCCAACCTTTTCACGTGTTGTAAGATATTTGT	16600
AGCGTAATCTATACCCACGTAAACCCACTGAGATAA	5710
GTCTTGTCTCATTGAGGTGTGGGTGTCCCCACTTCA	6220
TTAGTCTGTAACCAACACGTGCAAAGGGTAAATAGA	19000
TGCGCAACAACTTGTCACTATACTTTATGTCTAGAA	3180
TTGCATAGGCAGCATATCGCCCCCAGTAATCATTGG	3740
CTGTGCTGGTCAGCCCATGTGTCTGTCCCTGGCTGG	9130
ATGTCAATGGTACAGCACGTGGTAATTACAGCGGTG	19100
CCGGACACTAGGAAACACGCACAAAATTCTCAGGCA	6710
ATGCGATTCGGCCATCACGGGAGAGTCGACTAGTTC	4020
AACGATGCCCTTACCCACGTTATTGTTGTATAATTC	11900
GTAGAGCAGGATGATCCCGTGCCAGAACTGGATATC	8190
GTTACAAGACTTCACCACGTTAATAGCGATCTGGCT	6520
TCCGAAACGTCGAGTCACGGGTCCTGACAAGCAACC	5900
AAAGCGGTAATTTGTGGAGTGGGTGCAGATATCTAT	4410
AAATTACTAAGTTGTCACAGTACTTACCCCGTATGA	3350

Study 4
Target: Interferon regulatory factor 3, full length, phosphomimetic (IRF3, Homo sapiens, UniProt Q14653, residues 1-427, S386D/S396D/S398D/S402D/T404D/S405D)
Chain of UniProt Q14653 (whole entry, unmodified, looked up): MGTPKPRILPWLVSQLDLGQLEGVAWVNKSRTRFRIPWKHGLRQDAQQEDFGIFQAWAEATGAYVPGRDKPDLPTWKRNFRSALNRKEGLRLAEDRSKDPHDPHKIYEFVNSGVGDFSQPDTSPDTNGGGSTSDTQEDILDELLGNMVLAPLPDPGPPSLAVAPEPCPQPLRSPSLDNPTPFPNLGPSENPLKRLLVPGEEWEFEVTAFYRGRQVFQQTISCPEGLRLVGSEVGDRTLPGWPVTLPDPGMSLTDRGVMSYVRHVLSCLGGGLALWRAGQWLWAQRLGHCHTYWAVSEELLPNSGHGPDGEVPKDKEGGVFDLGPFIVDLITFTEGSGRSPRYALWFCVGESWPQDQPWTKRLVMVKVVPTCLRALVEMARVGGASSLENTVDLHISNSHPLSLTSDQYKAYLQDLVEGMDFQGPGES
Method: protein-binding microarray
Molecule type: double-stranded DNA, one strand shown
Sample: in vitro
Concentration: 2540 nM top
Setting: 60-bp whole probe
Added: salmon DNA 0.4 mg/ml
Relative to: random background probes
Direction: higher = stronger binding
Shared flanks, not repeated: GCCTAGCAC … GTCTTGATTCGCTTGACGCTGCTG
Sequence	fitted relative affinity
GACGGTATCCTTCTTCTGACGTGCTAG	6.71 z-score
GTTTTACTTTCTATCTCTGTGTGCTAG	5.81 z-score
TCACATATTCTCTTCTTACTGTGCTAG	1.38 z-score
GACGAACTGAGACTGGACACGTGCTAG	-0.264 z-score
TTAGATTCCAGTTTCGAGTAGTGCTAG	3.55 z-score
TCACTTTTCTGTTGTCTGACTGTGCTA	2.09 z-score
TTAGGTCTCCTGCTCCTTTAGTGCTAG	0.282 z-score
TTAGATATCAGTTACGATTAGTGCTAG	1.04 z-score
TTACATTTCGGGTTTCGATTAGTGCTA	2.97 z-score
GGTTTTCTCTGGTTCTTGCTGTGCTAG	0.894 z-score
TTAGGTTTCGGTCTCAGTTAGTGCTAG	8.09 z-score
GACGAACTGGACACTGGGGACGTGCTA	-0.274 z-score
GAAGTTCTTTTTTTCAAGAAGTGCTAG	1.47 z-score
TCAAGCTTTTCATTTTTTACTGTGCTA	0.749 z-score
TTACGTTTCGACTATCGGTTAGTGCTA	2.38 z-score
GAAGATATCGGGACTGGAGACGTGCTA	-0.345 z-score
TTAGATATCGAGTATCGATTAGTGCTA	0.217 z-score
CCTTTTATGGTATTTTTTTCGTGCTAG	3.02 z-score
TCAATTATTTATTGTAGCACTGTGCTA	0.181 z-score
GATGGACTGGGACTGGGGACGTGCTAG	-1.13 z-score
GACGGACTGCATATCCTGACGTGCTAG	-0.259 z-score

Study 5
Target: RNA binding protein fox-1 homolog 2, RRM domain, GST-SBP tag (RBFOX2, Homo sapiens, UniProt O43251-10, residues 100-194)
Method: RNA Bind-n-Seq
Molecule type: RNA
Sample: in vitro
Concentration: 365 nM
Setting: natural RNA segment, single round, ends assumed
Relative to: no-protein control
Direction: higher = stronger binding
Shared flanks, not repeated: GGGAGUUCUACAGUCCGACGAUC … UGGAAUUCUCGGGUGCCAA
Construct (chain): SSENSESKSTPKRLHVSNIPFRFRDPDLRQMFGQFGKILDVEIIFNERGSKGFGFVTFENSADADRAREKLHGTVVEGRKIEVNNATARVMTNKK
Sequence	RBNS enrichment (R)
CUGCGGAAGUGGAAGGUGGAACUCUAGCCCUGAAGUCACGCCUUGGCCCUGACAUCCCCACAUGCCCGCAGAGAUCCUCUUUGAGUGUCUGUCUUUGUCCAGGUUUCAGA	0.419
UACAUCCCAGGCCACCACCUCCGAGGAUGAAAAGAUGGCUGCCUGCAGCUUCCACGGAAUCCCUCCCUCACUGCCAGAGCAGCAUCUUCUCUGUGUACCACCUCUGCUGU	2.16
GUGUAUCUGUACUCUCUGCAGAUGGUCCAAAAUUGUAAUGGAGUCUGUAUUAGAAGAAAAUAAGGGUAAAAUCAGGCUGAACUGCAUGUAUAUGGCUCCACUGUGGCUUG	13.5
UGUGUGGGUUGCUCUGUUUUCUUACUGGAAUGCCUUCUCCGGAACUGUUGCGGUUUCAUUCUCUGUCAUCAGGGCUAUUUUCUACAGACCUUGAGCCUCAAAACCUGUUC	0.546
GGGCUGUAGGGGUUGGAUUAGCAUGGGCUCAAGCUACACCAGCUCUGAAGAGGAGGAGCAGGAGGAGCCUGCCCACUGGGCAUCGUGCCAUCCCCAUCAGGACCUCAGAC	0.557
CUUCUGCCUCCCAAUCAAGGAAGCUCCAUGCUCAGGCUCUCAGCUCUCGGGCCAGUGCUCUGCUCUGUCCAGGGUAGGUAAUACUGGGAGACUCCUGUCUUUUACCCUCC	0.285
AGGAACAAUCACCACAACAUGAUGUAGGUGCCACCCACCUCCUGAGCUGUUUUUGUAAAAUGACUGCUGACAGCAAGUUCUUGCUGCUCUCCAAUCUCAUCAGACAGUAG	0.161
CGGCUCACGCUUACCUCAACCAUCCUGGCUGCGGCGUCUGUCUGAACCACGCGGGGGCCUUGAGGGACGCUUUGUCUGUCGUGAUGGGGCAAGGGCACAAGUCCUGGAUG	0.456
AUGUUACUGCGUUCUGUGUCGGAAAGUAUAGUAUGCUCUAAGCAGUAGGCCUCUUGACUUUCUUACAUGACUUUCUGCUAAACUACUUUUCAUUUUAAGGGCACACGCAG	0.663
CUCCCUGGUGUGGUCAGCCUCUCUCACACAAGGAGGAACUUGGGUGAAGGCUGAGUGUGAGGCACCUGAAGUUUCCCUGCGGAGUCGAUAAAUUAGCAGAACCACAUCCC	1.01
GGAAGCAUAGAUAUCUAUAUUUUUAUUUCUACUAUGAGGGCCUUGUAAUAAAUUUCUAAAGCCUCUGGUUGCUUGUAUGUUUUCGGCUUCUAGAACAACUAGGACCCCUG	4.53
UGUGCAGCCCUCUAGUCAAUCACCAGUCCGGGAGUCAGGUUGUACUGAGUAGCUGGCCACGGAGGCUUGCUCAUGGAGGUCUCCAUCCCCAACAUCCAGAGGCCAGAAGA	0.295
